Assay results from different studies.
Protocols differ between the studies behind these lines. Several values in a cell are separate wells, animals, samples, runs or records. ± gives the spread as reported.
CTSD: Cathepsin D (CTSD, Homo sapiens, UniProt P07339)
UniProt P07339, sequence (whole entry, looked up): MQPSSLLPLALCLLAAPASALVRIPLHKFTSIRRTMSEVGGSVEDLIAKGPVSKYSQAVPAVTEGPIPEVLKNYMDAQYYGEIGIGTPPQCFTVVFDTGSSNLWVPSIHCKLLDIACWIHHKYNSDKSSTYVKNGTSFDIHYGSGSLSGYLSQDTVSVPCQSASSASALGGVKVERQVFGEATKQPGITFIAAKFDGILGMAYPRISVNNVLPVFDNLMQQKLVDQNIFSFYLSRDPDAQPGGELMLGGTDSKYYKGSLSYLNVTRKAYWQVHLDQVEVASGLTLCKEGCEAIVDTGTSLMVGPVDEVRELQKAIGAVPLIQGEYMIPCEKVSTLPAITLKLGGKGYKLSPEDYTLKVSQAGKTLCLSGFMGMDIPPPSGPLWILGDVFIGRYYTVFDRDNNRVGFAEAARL
ALOX5: Polyunsaturated fatty acid 5-lipoxygenase (ALOX5, Homo sapiens, UniProt P09917)
UniProt P09917, sequence (whole entry, looked up): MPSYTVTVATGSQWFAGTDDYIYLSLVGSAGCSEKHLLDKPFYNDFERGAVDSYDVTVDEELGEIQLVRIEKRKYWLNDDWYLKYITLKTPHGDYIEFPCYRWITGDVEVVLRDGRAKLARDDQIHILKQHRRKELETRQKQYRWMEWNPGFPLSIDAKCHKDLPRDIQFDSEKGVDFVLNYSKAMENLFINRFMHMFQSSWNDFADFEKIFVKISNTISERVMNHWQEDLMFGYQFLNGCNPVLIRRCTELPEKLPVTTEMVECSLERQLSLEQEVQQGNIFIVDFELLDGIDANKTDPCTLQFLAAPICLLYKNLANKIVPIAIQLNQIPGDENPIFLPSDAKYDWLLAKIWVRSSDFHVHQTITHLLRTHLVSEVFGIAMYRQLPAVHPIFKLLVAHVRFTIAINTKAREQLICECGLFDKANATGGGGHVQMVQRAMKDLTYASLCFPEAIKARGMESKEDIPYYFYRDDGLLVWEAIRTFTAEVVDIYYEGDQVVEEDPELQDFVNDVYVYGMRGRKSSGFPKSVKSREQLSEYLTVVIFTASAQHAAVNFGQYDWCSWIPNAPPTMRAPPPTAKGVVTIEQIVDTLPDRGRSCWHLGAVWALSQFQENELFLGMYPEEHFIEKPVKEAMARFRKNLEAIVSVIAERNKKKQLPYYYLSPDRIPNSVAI
ADORA1: Adenosine receptor A1 (ADORA1, Homo sapiens, UniProt P30542)
UniProt P30542, sequence (whole entry, looked up): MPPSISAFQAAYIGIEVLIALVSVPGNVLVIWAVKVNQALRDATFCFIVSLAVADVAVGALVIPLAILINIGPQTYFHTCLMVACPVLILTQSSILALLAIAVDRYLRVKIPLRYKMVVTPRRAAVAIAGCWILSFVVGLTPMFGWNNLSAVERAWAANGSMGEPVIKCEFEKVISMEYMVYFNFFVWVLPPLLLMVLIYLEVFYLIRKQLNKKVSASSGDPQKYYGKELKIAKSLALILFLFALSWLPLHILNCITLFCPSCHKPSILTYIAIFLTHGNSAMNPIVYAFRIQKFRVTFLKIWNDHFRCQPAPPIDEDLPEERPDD
Ephx2: Bifunctional epoxide hydrolase 2 (Ephx2, Mus musculus, UniProt P34914)
UniProt P34914, sequence (whole entry, looked up): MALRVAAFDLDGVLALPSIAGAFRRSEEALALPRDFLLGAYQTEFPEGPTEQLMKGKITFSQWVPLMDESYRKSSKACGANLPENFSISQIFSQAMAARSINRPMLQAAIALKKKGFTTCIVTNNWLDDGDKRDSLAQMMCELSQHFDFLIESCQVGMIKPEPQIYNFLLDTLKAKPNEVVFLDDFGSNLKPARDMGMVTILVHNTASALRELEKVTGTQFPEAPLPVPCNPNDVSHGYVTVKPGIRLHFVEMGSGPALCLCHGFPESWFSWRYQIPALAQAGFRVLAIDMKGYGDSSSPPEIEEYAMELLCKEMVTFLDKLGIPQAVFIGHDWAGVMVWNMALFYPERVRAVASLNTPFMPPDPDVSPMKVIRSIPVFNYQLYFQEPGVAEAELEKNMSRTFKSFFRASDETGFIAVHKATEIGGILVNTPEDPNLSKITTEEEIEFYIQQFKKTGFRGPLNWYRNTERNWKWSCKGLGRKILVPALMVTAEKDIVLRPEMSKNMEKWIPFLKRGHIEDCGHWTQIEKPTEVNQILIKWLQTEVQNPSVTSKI
RIPK2: Receptor-interacting serine/threonine-protein kinase 2 (RIPK2, Homo sapiens, UniProt O43353)
UniProt O43353, sequence (whole entry, looked up): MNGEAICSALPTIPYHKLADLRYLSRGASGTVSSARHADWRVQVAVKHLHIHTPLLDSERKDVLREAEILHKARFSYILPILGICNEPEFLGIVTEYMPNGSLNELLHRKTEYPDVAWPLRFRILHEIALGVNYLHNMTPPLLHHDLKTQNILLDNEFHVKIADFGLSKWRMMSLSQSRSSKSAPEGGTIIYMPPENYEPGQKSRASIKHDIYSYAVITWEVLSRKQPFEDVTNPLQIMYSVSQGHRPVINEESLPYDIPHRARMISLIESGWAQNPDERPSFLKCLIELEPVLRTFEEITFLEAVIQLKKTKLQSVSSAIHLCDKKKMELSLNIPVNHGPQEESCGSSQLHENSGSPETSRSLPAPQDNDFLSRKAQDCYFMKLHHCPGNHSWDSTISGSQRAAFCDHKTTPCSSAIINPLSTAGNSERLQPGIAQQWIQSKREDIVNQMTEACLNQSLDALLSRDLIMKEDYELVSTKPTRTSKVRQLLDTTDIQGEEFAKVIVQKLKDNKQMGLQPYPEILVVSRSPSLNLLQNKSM
UniProt P21964, sequence (whole entry, looked up): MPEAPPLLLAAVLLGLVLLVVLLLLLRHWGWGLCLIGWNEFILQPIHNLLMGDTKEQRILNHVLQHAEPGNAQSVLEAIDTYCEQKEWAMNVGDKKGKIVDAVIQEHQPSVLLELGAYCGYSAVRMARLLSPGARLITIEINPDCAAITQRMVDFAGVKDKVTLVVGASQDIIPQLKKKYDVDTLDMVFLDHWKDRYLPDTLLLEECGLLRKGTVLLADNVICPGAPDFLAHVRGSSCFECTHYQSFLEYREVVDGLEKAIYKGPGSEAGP
UniProt P09769, sequence (whole entry, looked up): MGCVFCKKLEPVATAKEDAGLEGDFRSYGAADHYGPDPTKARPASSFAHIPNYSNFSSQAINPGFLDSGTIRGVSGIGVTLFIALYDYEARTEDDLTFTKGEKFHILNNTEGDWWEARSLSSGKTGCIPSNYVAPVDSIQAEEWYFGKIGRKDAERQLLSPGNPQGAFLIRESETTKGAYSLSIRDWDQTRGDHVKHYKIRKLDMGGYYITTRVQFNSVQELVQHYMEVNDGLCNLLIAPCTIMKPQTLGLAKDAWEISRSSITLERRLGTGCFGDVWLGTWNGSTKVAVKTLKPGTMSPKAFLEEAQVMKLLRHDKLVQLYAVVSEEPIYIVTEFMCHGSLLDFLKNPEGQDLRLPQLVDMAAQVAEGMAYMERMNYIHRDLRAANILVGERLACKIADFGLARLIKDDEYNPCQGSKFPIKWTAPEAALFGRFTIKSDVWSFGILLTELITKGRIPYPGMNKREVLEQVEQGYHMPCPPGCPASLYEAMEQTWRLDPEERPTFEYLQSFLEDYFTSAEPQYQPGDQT
UniProt P53779, sequence (whole entry, unmodified, looked up): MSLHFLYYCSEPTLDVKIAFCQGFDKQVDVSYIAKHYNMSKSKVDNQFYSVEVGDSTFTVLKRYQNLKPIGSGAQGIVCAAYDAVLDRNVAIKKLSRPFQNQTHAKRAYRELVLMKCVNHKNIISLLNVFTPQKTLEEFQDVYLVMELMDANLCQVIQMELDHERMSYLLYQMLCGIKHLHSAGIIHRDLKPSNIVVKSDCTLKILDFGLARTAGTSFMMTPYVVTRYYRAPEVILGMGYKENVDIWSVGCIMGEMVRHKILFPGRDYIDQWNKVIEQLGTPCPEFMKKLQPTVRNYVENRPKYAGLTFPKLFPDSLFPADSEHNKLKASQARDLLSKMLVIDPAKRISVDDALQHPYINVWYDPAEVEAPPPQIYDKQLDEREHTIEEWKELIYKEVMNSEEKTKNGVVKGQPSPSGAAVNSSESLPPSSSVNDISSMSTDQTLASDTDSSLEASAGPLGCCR
UniProt P17812, sequence (whole entry, looked up): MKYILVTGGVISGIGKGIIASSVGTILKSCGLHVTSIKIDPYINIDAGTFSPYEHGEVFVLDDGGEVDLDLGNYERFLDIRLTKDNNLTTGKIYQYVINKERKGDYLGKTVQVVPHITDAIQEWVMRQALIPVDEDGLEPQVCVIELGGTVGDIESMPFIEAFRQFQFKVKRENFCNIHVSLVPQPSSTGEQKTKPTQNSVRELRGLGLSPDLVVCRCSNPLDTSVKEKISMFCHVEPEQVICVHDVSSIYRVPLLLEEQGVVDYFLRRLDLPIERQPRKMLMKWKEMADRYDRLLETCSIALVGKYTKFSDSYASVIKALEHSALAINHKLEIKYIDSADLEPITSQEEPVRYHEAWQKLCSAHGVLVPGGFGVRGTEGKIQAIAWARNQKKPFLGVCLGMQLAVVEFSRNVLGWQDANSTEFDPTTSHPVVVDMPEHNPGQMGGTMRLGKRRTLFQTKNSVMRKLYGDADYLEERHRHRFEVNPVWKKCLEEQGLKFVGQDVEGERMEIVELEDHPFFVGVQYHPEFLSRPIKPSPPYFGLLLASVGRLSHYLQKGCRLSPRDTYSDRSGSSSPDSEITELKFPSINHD
UniProt P43341, sequence (whole entry, looked up): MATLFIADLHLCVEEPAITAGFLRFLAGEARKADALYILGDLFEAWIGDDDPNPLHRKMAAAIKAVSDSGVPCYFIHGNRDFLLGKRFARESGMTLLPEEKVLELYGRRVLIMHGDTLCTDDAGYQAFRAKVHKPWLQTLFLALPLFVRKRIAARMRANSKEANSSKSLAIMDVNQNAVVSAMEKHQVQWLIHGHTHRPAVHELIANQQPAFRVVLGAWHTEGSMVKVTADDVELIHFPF
UniProt P08100, sequence (whole entry, looked up): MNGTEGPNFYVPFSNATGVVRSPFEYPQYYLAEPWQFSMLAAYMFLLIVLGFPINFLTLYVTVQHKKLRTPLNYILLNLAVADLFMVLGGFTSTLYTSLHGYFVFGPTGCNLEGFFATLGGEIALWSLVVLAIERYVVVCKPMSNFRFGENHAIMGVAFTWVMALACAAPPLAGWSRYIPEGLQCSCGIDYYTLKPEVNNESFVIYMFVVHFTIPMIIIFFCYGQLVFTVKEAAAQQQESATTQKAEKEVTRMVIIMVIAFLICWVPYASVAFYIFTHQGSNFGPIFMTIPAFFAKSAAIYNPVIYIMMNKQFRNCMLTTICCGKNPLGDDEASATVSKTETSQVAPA

COC(=O)CCSc1nc2n(n1)C(c1cccc(OC)c1)C(C(=O)Nc1cncc(C)c1)=C(C)N2 (stereo not shown) — IC50 (Phosphatidylinositol 4,5-bisphosphate 3-kinase catalytic subunit delta isoform, with p85 (PIK3CD, Homo sapiens, UniProt O00329); enzyme activity, inhibitor, ADP detection): 660 nM
O=c1cc(-c2ccccc2)oc2cc(O[C@@H]3O[C@H](CO)[C@@H](O)[C@H](O)[C@H]3O)c(O)c(O)c12 — IC50 (COMT (Homo sapiens, UniProt P21964); enzyme activity, inhibitor, fluorescence): 38100 nM
COC(=O)C1CCCN1C(=O)C(Cc1ccccc1)N(C)C(=O)CC(O)C(CC(C)C)NC(=O)C(CC(C)C)N(C)C(=O)C(CC(C)C)NC(=O)C(O)C(C)C (stereo not shown) — IC50 (CTSD; enzyme activity, inhibitor, fluorescence; pH 3.5): 66 nM
C[C@@H]1NC(=O)CNC(=O)c2cc3cc(c2)C(=O)NC[C@@H](C(=O)NCCC(=O)NCCC(=O)N[C@@H](CCCCN)C(N)=O)NC(=O)[C@H](CCCNC(=N)N)NC(=O)[C@@H](CCCNC(=N)N)NC(=O)[C@H](CCCNC(=N)N)NC(=O)[C@H](Cc2ccc4ccccc4c2)NC(=O)[C@H](Cc2ccccc2)NC(=O)[C@H](CNC3=O)NC(=O)[C@H](C)NC(=O)[C@H](C)NC(=O)[C@H](C)NC1=O — IC50 (NF-kappa-B essential modulator, with IKK-beta (IKBKG, Homo sapiens, UniProt Q9Y6K9); inhibitor, HTRF): > 100000 nM
O=C1C2=C(Nc3ccccc3SC2C2CCCCC2)c2ccccc21 (racemic) — IC50 (MT-CYB, bc1 complex (Plasmodium falciparum, UniProt Q02768); enzyme activity, inhibitor; purified mitochondrial fractions): 5 ± 1.6 nM
COc1cc(/C=C/C(=O)c2ccc3c(c2)OCO3)cc(OC)c1OC — IC50 (ABCG2 (Homo sapiens, UniProt Q9UNQ0); transporter efflux, inhibitor, flow cytometry; HEK293; 30 min): 640 nM
COc1cc(O)ccc1CC[C@@H](c1ccc(O)cc1)c1cc2c(c(C)c1O)O[C@H](c1ccc(O)cc1)CC2 — IC50 (ALOX5; enzyme activity, inhibitor): 500 nM
CCNC(=O)[C@H]1O[C@@H](n2cnc3c(NCCCCNC(=O)CCCCCNS(=O)(=O)c4ccc(C5=c6cc7c8c(c6Oc6c5cc5c9c6CCCN9CCC5)CCC[N+]=8CCC7)c(S(=O)(=O)[O-])c4)ncnc32)[C@H](O)[C@@H]1O — IC50 (ADORA1; ligand displacement in cells, radioligand): > 100000 nM
O=C1NC(=O)/C(=C/c2ccc3c(c2)OCO3)N1 — IC50 (PIK3CA (Homo sapiens, UniProt P42336); enzyme activity, inhibitor, radiometric): 50000 nM
CCNC(=O)[C@H]1O[C@@H](n2cnc3c(NCCOCCOCCNC(=O)CCCCCNC(=O)COc4ccc(/C=C/C5=[N+]6C(=Cc7ccc(-c8cccs8)n7[B-]6(F)F)C=C5)cc4)ncnc32)[C@H](O)[C@@H]1O — IC50 (ADORA1; ligand displacement in cells, radioligand): 589 nM
Cc1cc(NC(=O)c2cccc(-n3cc(NC(=O)Nc4ccc(Cl)cc4)cn3)c2)ccn1 — IC50 (Mitogen-activated protein kinase 10, isoform alpha-1 (MAPK10, Homo sapiens, UniProt P53779, L144I); enzyme activity, inhibitor, HTRF; together with: 1.25 µM ATP): 2170 ± 693 nM
Nc1nc2c(ncn2C2CC(O)C(COP(=O)(O)OCC3OC(n4cnc5c(N)ncnc54)CC3O)O2)c(=O)[nH]1 (stereo not shown) — IC50 (SAMHD1 (Homo sapiens, UniProt Q9Y3Z3); enzyme activity, inhibitor, absorbance): 102000 nM
O=c1[nH]sc2ccccc12 — IC50 (HDAC4 (Homo sapiens, UniProt P56524); enzyme activity, inhibitor): > 10000 nM
CC[C@H](C)[C@H](NC(=O)[C@@H](C[C@H](O)[C@@H](N)COc1ccc(-c2ccc(F)cc2)c(OCCCOC)c1)OC)C(=O)NCc1ccc(Cl)cc1 — IC50 (Beta-secretase 1 (BACE1, Homo sapiens, UniProt P56817); enzyme activity, inhibitor; pH 4.5): 1200 nM
CC(C)CNC(=O)[C@H](Cc1ccccc1)NC(=O)[C@H](Cc1c[nH]c2ccccc12)NC(=O)[C@H](CCCNC(=N)N)NC(=O)OCC(C)C — IC50 (Protein Mdm4, with p53 (MDM4, Homo sapiens, UniProt O15151); MDMX-p53 binding, inhibitor, competitive ELISA): 300000 ± 25000 nM
Nc1cc(-c2cc(-c3ccccc3)c(C(F)(F)F)s2)n[nH]1 — IC50 (ESR2 (Homo sapiens, UniProt Q92731); coactivator recruitment, antagonist): 9020 nM
CC12CC3CC(C1)CC(NC(=O)NC1CCC(Oc4ccc(C(=O)O)cc4)CC1)(C3)C2 (stereo not shown) — IC50 (Ephx2; enzyme activity, inhibitor, fluorescence): 2 nM
CNC(=O)C1CCN(c2cc(C)ccc2NC(=O)c2ccc(-c3cc(O)ccc3C)c(C)c2)CC1 — IC50 (FGR (Homo sapiens, UniProt P09769); target engagement in cells, BRET): 4390 nM
CC(C)C(=O)NC1CC=C(c2cc3c(Nc4ccc5scnc5c4)ncnc3s2)CC1 (stereo not shown) — IC50 (RIPK2; enzyme activity, inhibitor): 12 nM
C[C@H](NC(=O)CNC(=O)[C@H](Cc1ccc(O)cc1)NC(=O)[C@@H](N)CSSC[C@H](N)C(=O)N[C@@H](Cc1ccc(O)cc1)C(=O)NCC(=O)N[C@@H](C)C(=O)N[C@@H](CCCCN)C(N)=O)C(=O)N[C@@H](CCCCN)C(N)=O — IC50 (Calpain-10 (Oryctolagus cuniculus, UniProt G1TPK4); enzyme activity, inhibitor; isolated rabbit mitochondria): 200 nM and ~200 nM
N=C(NCCCCC(N)C(N)=O)NCCSCC1OC(n2cnc3c(N)ncnc32)C(O)C1O (stereo not shown) — IC50 (EHMT2 (Homo sapiens, UniProt Q96KQ7); enzyme activity, inhibitor, fluorescence): > 100000 nM
CN(C(=O)c1ccn2ncc(-c3ccc(C(N)=O)cc3)c2c1)c1ccc(C#N)cn1 — IC50 (CTSD; enzyme activity, inhibitor): > 30000 nM
Oc1cc(O)c2c(c1)O[C@H](c1ccc(O)c(O)c1)[C@H](O)[C@H]2c1c(O)cc(O)c2c1O[C@H](c1ccc(O)c(O)c1)[C@@H](O)[C@@H]2c1c(O)cc(O)c2c1O[C@H](c1ccc(O)c(O)c1)[C@H](O)C2 — IC50 (alpha-glucosidase (Bacillus stearothermophilus); inhibitor; 20 min, pH 6.8, 60 °C, together with: pNPG substrate): 5300 ± 500 nM
CCOc1cncc(-c2ccc(NC(=O)C(CC)c3ccnc(NS(=O)(=O)C4CC4)n3)nc2)n1 (stereo not shown) — IC50 (CTP synthase 1 (Homo sapiens, UniProt P17812); cell viability; CTPS-null Jurkat with human CTPS1; 3 days): 13 nM
CN(Cc1ccon1)C(=O)c1cccc(-c2ccc(F)cc2)c1 — IC50 (Acetyl-CoA synthetase (Cryptococcus neoformans, UniProt J9VFT1)): > 50000 nM
CC(C)NC(=O)N1CC=C(c2cc3c(Nc4ccc5scnc5c4)ncnc3s2)C1 — IC50 (RIPK2; enzyme activity, inhibitor): 25 nM
O=C(O)C(CO)NCc1cc(Cl)c(OCc2cccc(-c3ccccc3)c2Br)cc1OCc1cccnc1 (stereo not shown) — IC50 (Programmed cell death 1 ligand 1, with B7-1 (CD274, Homo sapiens, UniProt Q9NZQ7); PD-1/PD-L1 interaction, inhibitor, ELISA): ~0.3 nM and 0.3 nM
CCC(NC(=O)CN1C(=O)N/C(=C\c2ccc(C)cc2)C1=O)C(=O)OC (stereo not shown) — IC50 (α-amylase; enzyme activity, DNSA colorimetric): > 100000 nM
COc1cc(OC)c(C(=O)CCc2ccccc2)c(O)c1O — IC50 (α-glucosidase (Saccharomyces cerevisiae); inhibitor; together with: pNPG): > 10 µg/mL
COc1ccc(/C=C/C(=O)CC(=O)CCc2cc(OC)c(OC)c(OC)c2)cc1 — IC50 (PNLIP (Sus scrofa, UniProt P00591); enzyme activity, inhibitor, absorbance): 164000 nM
CC1=C(/C=C/C(=O)N2CCN(C(N)=O)CC2)C(C)(C)CCC1 — IC50 (Rhodopsin (RHO, Homo sapiens, UniProt P08100); 9-cis-retinal binding rate, competitor; cell-free, incomplete competition, together with: 9-cis-retinal 2.0 µM): 17800 to 28600 nM
COC(=O)C1C(C=NN=CC2=Cc3cc4c(cc3C(c3cc(OC)c(OC)c(OC)c3)C2C(=O)OC)OCO4)=Cc2cc3c(cc2C1c1cc(OC)c(OC)c(OC)c1)OCO3 (stereo not shown) — IC50 (tubulin alpha/beta (Leishmania infantum, UniProt A0A381MCS3+A4HTR0); tubulin polymerization, inhibitor; 37 °C): > 20000 nM
C[C@@]12CC[C@@H]3c4cc(Br)c(O)c(Br)c4CC[C@H]3[C@@H]1CCC2=O — IC50 (AKR1C2 (Homo sapiens, UniProt P52895); enzyme activity, inhibitor, absorbance; pH 9): 7300 nM
CC(Cl)C(=O)Nc1ccc2nc(NCCCCCN(C)C)nc(NCCCCCCN(C)C)c2c1 (stereo not shown) — IC50 (Histone-lysine N-methyltransferase SETDB1, triple tudor domain (SETDB1, Homo sapiens, UniProt Q15047, C385A); binding, TR-FRET displacement; 1 h, room temperature): 9500 ± 5400 nM
O=C(O)c1c(O)cccc1CC(OC1OC(CO)C(O)C(O)C1O)c1ccc(O)cc1 (stereo not shown) — IC50 (PTPN1 (Homo sapiens, UniProt P18031); enzyme activity, inhibitor, absorbance): > 100000 nM
Clc1ccc(-c2cs/c(=N/N=C/c3ccc(N4CCOCC4)cc3)n2-c2cccc3ccccc23)cc1 — IC50 (CA2 (Bos taurus, UniProt P00921); enzyme activity, inhibitor, absorbance): 36100 nM
COc1ccc(C(=O)CCc2cc(C(CCc3ccc(O)cc3OC)c3ccc(O)cc3)c(O)cc2OC)cc1 (racemic) — IC50 (ALOX5; enzyme activity, inhibitor): 1100 nM
CCCCCCCCCCCCN — IC50 (Ephx2; enzyme activity, inhibitor, absorbance; pH 7.4, with preincubation): > 500000 nM
O=C(Nc1ccc(Cl)cc1)c1cccc(S(=O)(=O)NC2CC2)c1 — IC50 (Ectonucleoside triphosphate diphosphohydrolase 3 (Homo sapiens, UniProt O75355); enzyme activity, inhibitor, absorbance): 1330 nM
CN(c1ccccc1C(=O)N1CCc2cc(S(=O)(=O)N3CCN(c4cc(C(F)(F)F)cc(Cl)n4)CC3)ccc21)S(C)(=O)=O — IC50 (UDP-2,3-diacylglucosamine hydrolase (UniProt P43341); enzyme activity, inhibitor, absorbance): 0.058 nM
O=C(Nc1ccc(-c2nc(-c3ccccc3)cs2)cc1)C1CCN(Cc2cccnc2)CC1 — IC50 (Ephx2; enzyme activity, inhibitor, fluorescence; pH 7.4, with preincubation): > 10000 nM
Cc1ccc2oc(-c3c4c(N)n[nH]c(=O)c4nn3-c3ccc(NC(=O)/C=C/CN(C)C)cc3)c(C)c2c1 — IC50 (DDR2 (Homo sapiens, UniProt Q16832); enzyme activity, inhibitor, ELISA): > 1000 nM
COc1cc(/C=C/C(=O)CC(=O)CCc2ccc(O)c(OC)c2)ccc1O — IC50 (HSD3B2 (Homo sapiens, UniProt P26439); enzyme activity, inhibitor; KGN cell homogenate; lower bound from 100 µM screen, together with: pregnenolone): ≥ 100000 nM
C=CC(=O)N1CCc2ccc(-n3c(=O)ccc4cnc5ccc(-c6cnn(C)c6)cc5c43)cc21 — IC50 (FYN (Homo sapiens, UniProt P06241); enzyme activity, inhibitor): > 10000 nM
CCC=CCC=CCC=CCC=CCC=CCC=CCCC(=O)Oc1cc(C(=O)O[C@@H]2Cc3c(O)cc(O)cc3O[C@@H]2c2cc(OC(=O)CCC=CCC=CCC=CCC=CCC=CCC=CCC)c(O)c(OC(=O)CCC=CCC=CCC=CCC=CCC=CCC=CCC)c2)cc(OC(=O)CCC=CCC=CCC=CCC=CCC=CCC=CCC)c1O — IC50 (Genome polyprotein, protease (Hepatitis C virus genotype 1a, UniProt P27958); enzyme activity, inhibitor, fluorescence): 6 nM
N#Cc1ccc(N(Cc2ccc(OS(N)(=O)=O)cc2F)n2cnnc2)cc1 — IC50 (Steryl-sulfatase (STS, Homo sapiens, UniProt P08842); enzyme activity, inhibitor; JEG-3 intact monolayers): 10 to 100 nM
